Published values from different studies.
Each line is one published result; not all experiments were run side by side. Several values in a cell are separate wells, animals, samples, runs or records. ± marks the error that the study gave.
Aryl hydrocarbon receptor: Aryl hydrocarbon receptor (Danio rerio, UniProt Q9YGV3)
SET: Protein SET (SET, Homo sapiens, UniProt Q01105)
Sequence of UniProt Q01105 (whole entry, unmodified, looked up): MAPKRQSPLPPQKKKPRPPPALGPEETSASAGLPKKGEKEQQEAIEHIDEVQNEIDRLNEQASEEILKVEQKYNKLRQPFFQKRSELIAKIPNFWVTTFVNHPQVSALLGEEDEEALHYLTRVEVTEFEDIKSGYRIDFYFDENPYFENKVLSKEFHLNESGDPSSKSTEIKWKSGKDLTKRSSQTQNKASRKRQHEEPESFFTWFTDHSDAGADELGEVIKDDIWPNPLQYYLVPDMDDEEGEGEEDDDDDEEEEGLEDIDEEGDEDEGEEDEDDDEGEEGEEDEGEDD
T1: FMN riboswitch RNA, two annealed strands (Fusobacterium nucleatum); chain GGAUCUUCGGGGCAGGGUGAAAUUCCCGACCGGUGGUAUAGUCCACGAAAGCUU; chain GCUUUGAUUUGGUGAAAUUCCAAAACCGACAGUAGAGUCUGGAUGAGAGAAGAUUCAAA
Sequence of UniProt P00519 (whole entry, unmodified, looked up): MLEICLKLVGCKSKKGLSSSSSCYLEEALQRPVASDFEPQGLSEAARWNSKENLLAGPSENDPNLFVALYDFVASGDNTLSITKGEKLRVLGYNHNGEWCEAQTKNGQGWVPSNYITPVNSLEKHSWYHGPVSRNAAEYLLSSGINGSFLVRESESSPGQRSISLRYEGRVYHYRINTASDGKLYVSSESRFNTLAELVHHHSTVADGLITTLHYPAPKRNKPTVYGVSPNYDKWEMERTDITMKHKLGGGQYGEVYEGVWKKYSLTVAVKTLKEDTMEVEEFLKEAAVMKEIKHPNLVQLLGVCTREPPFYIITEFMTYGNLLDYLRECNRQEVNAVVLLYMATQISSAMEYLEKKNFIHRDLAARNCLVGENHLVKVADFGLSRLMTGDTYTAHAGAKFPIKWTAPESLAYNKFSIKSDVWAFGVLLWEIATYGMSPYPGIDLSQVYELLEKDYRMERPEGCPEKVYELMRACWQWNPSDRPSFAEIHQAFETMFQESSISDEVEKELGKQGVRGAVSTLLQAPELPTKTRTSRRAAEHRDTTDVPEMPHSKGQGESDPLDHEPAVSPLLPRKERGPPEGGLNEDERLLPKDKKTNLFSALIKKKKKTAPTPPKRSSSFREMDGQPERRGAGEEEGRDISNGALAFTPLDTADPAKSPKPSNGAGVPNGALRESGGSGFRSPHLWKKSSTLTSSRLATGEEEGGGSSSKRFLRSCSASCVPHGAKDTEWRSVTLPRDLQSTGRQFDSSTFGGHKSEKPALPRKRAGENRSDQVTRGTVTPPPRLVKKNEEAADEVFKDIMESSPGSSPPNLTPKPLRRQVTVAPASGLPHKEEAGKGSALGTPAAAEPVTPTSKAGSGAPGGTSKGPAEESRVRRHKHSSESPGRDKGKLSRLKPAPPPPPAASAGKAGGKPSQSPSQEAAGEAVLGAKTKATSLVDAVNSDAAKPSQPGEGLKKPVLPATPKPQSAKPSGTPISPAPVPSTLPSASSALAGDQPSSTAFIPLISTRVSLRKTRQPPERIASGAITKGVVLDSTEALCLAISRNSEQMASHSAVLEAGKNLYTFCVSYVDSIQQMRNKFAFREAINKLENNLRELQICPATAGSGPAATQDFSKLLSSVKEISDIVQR
Sequence of UniProt O00567 (whole entry, looked up): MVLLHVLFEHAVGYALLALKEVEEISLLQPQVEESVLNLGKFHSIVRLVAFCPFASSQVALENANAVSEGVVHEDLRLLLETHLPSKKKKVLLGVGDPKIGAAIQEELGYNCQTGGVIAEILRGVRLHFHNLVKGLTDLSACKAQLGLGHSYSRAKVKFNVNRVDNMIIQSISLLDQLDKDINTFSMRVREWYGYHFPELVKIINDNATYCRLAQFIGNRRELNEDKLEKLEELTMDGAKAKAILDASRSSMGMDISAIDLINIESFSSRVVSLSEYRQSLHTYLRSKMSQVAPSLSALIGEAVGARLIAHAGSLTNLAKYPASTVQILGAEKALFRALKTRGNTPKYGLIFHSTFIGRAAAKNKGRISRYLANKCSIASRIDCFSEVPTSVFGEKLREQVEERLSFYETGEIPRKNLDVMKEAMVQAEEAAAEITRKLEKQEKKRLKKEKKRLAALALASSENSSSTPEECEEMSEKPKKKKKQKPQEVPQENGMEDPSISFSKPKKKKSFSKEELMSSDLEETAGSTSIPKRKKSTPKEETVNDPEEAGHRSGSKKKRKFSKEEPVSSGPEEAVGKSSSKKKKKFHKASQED
Sequence of UniProt Q16774 (whole entry, unmodified, looked up): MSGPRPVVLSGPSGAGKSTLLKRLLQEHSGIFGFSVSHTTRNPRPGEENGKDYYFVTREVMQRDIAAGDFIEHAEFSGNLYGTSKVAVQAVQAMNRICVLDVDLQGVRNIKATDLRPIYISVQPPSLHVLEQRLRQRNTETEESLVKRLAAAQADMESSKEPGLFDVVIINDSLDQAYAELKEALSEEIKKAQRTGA
Sequence of UniProt P51575 (whole entry, unmodified, looked up): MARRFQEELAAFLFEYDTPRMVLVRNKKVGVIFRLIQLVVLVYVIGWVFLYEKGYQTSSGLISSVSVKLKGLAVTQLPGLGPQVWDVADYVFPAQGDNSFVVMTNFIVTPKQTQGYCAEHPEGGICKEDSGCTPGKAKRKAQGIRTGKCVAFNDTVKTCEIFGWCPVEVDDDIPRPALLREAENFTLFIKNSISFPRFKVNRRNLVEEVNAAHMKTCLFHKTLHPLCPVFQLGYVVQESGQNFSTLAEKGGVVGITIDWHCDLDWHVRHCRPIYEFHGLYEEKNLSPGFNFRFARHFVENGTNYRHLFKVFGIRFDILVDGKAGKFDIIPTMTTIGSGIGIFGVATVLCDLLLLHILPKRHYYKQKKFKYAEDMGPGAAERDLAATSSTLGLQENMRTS
Sequence of UniProt Q9UH17 (whole entry, looked up): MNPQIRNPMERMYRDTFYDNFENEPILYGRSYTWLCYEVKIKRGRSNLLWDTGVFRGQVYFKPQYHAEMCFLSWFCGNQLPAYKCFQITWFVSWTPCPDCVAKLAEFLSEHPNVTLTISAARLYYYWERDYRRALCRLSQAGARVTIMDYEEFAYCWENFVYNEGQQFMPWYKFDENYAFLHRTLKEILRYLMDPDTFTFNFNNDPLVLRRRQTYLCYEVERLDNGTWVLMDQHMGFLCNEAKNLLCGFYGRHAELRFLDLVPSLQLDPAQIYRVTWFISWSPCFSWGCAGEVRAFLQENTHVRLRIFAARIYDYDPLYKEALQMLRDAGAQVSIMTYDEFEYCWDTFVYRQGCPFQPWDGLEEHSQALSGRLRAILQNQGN
Sequence of UniProt P32320 (whole entry, looked up): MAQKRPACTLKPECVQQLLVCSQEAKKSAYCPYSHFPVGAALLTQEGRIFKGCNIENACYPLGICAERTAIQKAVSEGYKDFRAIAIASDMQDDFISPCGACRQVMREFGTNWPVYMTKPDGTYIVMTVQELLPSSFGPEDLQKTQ
Sequence of UniProt P11388 (whole entry, looked up): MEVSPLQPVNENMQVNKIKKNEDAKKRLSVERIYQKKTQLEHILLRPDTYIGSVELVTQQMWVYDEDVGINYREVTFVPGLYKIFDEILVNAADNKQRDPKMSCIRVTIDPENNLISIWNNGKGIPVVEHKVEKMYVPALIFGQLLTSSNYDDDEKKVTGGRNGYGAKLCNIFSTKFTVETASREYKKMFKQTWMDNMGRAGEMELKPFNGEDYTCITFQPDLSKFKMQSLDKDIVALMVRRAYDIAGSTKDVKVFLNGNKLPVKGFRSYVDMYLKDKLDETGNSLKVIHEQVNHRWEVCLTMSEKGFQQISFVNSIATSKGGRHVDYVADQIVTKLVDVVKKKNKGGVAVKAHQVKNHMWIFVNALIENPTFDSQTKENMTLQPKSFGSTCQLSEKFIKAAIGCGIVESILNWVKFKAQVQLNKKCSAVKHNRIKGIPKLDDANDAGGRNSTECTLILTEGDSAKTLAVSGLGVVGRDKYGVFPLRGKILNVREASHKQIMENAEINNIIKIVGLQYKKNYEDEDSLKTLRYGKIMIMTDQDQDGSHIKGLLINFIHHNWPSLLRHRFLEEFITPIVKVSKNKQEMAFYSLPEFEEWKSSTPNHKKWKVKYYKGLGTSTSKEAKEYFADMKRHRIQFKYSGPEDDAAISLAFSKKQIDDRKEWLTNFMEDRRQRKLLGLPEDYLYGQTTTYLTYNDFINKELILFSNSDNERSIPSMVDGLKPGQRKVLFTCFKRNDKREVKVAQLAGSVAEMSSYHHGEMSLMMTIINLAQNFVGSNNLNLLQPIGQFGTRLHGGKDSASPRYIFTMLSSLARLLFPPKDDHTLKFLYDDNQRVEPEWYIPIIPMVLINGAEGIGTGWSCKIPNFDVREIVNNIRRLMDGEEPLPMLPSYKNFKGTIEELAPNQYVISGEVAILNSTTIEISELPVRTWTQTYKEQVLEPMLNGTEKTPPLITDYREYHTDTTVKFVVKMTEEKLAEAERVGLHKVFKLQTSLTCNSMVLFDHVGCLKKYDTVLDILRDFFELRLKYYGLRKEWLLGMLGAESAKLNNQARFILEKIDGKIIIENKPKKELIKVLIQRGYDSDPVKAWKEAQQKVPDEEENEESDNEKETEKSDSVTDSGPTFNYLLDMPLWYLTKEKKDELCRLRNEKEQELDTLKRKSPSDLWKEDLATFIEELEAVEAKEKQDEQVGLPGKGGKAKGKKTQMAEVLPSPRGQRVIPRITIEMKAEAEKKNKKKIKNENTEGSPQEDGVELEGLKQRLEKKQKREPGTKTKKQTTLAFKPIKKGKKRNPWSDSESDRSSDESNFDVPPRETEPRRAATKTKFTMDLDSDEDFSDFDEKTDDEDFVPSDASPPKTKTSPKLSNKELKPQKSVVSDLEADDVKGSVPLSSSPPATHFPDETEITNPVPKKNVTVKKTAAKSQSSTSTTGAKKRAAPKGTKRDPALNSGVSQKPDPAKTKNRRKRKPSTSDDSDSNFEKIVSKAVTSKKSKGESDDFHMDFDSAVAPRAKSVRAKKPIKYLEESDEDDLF
Sequence of UniProt Q60893 (whole entry, looked up): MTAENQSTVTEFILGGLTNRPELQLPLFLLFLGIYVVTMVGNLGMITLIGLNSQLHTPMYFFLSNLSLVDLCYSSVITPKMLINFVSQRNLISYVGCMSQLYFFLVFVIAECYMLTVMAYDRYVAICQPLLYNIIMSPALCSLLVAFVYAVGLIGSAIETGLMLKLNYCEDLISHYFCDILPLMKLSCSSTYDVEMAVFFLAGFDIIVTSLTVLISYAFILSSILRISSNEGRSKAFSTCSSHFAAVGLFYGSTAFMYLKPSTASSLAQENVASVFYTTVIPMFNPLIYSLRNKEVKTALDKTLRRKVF

N[C@H]1CCN(c2nccc(-c3cnn4ncccc34)n2)C1
remaining binding (Tyrosine-protein kinase ABL1 (ABL1, Homo sapiens, UniProt P00519, F317I); KINOMEscan; 1 µM; relative to: control): 99%

C1=C/COCc2cc(ccc2OCCN2CCCC2)Nc2nccc(n2)-c2cccc(c2)COC/1
remaining binding (Tyrosine-protein kinase ABL1 (ABL1, Homo sapiens, UniProt P00519, F317L); 0.1 µM; relative to: DMSO control): 43%

Nc1nnc(-c2ccccc2O)cc1N1CCN(Cc2ccc(OCCOCCNc3cccc4c3C(=O)N(C3CCC(=O)NC3=O)C4=O)c(F)c2)CC1 (stereo not shown)
Dmax (SWI/SNF-related matrix-associated actin-dependent regulator of chromatin subfamily A member 2 (SMARCA2, Homo sapiens, UniProt P51531); degrader, immunoblot; SMARCA4 wild-type cells; 96 h, median of twelve cell lines): 90%

Cc1cc2nc3c(=O)[nH]c(=O)nc-3n(C[C@H](O)[C@H](O)[C@H](O)CO)c2cc1C
binding (T1, FMN riboswitch RNA, two annealed strands (Fusobacterium nucleatum); competitor, MALDI-TOF-MS; 100 µM, added: riboflavin 150 µM): binds

c1ccc2c(c1)-c1cccc3c1c-2cc1ccccc13
fold change (Aryl hydrocarbon receptor; reporter gene, agonist, luciferase reporter; ZF-4; 13.72 µM; relative to: vehicle control): 4.28

O=C(COP(=O)(O)O)[C@@H](O)[C@H](O)[C@H](O)COP(=O)(O)O
thermal stability ratio (Nucleolar protein 56 (Homo sapiens, UniProt O00567); thermal proteome profiling, refers to: NOP56; HepG2 cell lysate; concentration not given, 57 over 37 °C; relative to: compound over control): 0.472 and 0.541 and 0.652

CC(=O)c1ccccc1N
Emax (Or8a1 (Mus musculus, UniProt Q60893); odorant-evoked current, agonist; isolated olfactory neurons; relative to: acetophenone saturated response): 109 ± 1%

CC[C@H](C)[C@H](NC(=O)[C@H](CO)NC(=O)[C@H](CCCCN)NC(=O)[C@H](Cc1ccccc1)NC(=O)[C@@H](NC(=O)[C@H](CCC(=O)O)NC(=O)[C@H](Cc1ccc(O)cc1)NC(=O)[C@@H](NC(=O)[C@H](CCCNC(=N)N)NC(=O)[C@H](CCCCN)NC(=O)[C@H](CCCNC(=N)N)NC(=O)[C@H](CCCCN)NC(=O)[C@H](CCC(=O)O)NC(=O)[C@H](CCC(=O)O)NC(=O)[C@@H](NC(=O)[C@H](CCCNC(=N)N)NC(=O)[C@H](Cc1c[nH]cn1)NC(=O)[C@H](CCCNC(=N)N)NC(=O)[C@H](CC(=O)O)NC(=O)[C@H](CC(=O)O)NC(=O)[C@@H](NC(=O)[C@H](CC(=O)O)NC(=O)[C@@H]1CCCN1C(=O)[C@@H](N)CC(C)C)[C@@H](C)O)[C@@H](C)CC)[C@@H](C)O)[C@@H](C)O)C(=O)N[C@@H](C)C(=O)N[C@@H](CCCCN)C(=O)N[C@@H](CCCCN)C(=O)N[C@@H](CO)C(=O)N1CCC[C@H]1C(=O)N[C@@H](Cc1ccccc1)C(=O)N[C@@H](CC(N)=O)C(=O)NCC(=O)N1CCC[C@H]1C(=O)O
ΔH (NF-kappa-B inhibitor alpha (Homo sapiens, UniProt P25963); binding, ITC; pH 7.5, 293 K, 50 mM NaCl): -3 ± 0.02 kcal/mol

Nc1cccc2c1CN(C1CCC(=O)NC1=O)C2=O (stereo not shown)
Dmax (Sal-like protein 4 (SALL4, Homo sapiens, UniProt Q9UJQ4); degrader; C33A): 43 ± 2%

CCC1(O)CCCN(C(=O)c2ccc(-c3ccc(F)c(NC(=O)CCl)c3)cc2)C1 (stereo not shown)
unmodified protein (DNA dC->dU-editing enzyme APOBEC-3B, C-terminal domain (Homo sapiens, UniProt Q9UH17); covalent modifier, intact protein mass spectrometry; 125 µM, 1 h, 5-fold molar excess): 52% and 64%

COc1cc(O)c2c(c1)oc(=O)c1c3cc(O)c(O)cc3oc21
ΔS (Alpha-glucosidase MAL12 (MAL12, Saccharomyces cerevisiae S288c, UniProt P53341); fluorescence quenching; 304 K): -318 J/(mol·K)

CN(C)c1nccc(-c2cnc3ncccn23)n1
remaining binding (Tyrosine-protein kinase ABL1 (ABL1, Homo sapiens, UniProt P00519, H396P); KINOMEscan; 1 µM): 48% and 73%

CC1=C(C(=O)OC(C)C)C(c2ccccc2Br)C2=C(CC(C)(C)CC2=O)N1 (stereo not shown)
potency relative to reference (ADGRG1 (Homo sapiens, UniProt Q9Y653); agonist, GTPγS binding reconstitution; added: G13; relative to: 3-α-DOG): ~40%

COc1cc(C#CC(=O)c2ccccc2)ccc1O
binding (HTH-type quorum-sensing regulator RhlR (rhlR, Pseudomonas aeruginosa, UniProt P54292); receptor binding; concentration not given, 1.5 h, added: BHL at 1:1 ratio; relative to: control): 52%

[H]/N=C(/N)NCC(=O)O
normalised MST signal (Sodium- and chloride-dependent taurine transporter (SLC6A6, Homo sapiens, UniProt P31641, L306A); binding, microscale thermophoresis; 30.5 nM, room temperature, added: 50 nM labelled protein; higher = more binding): 0.0521

COc1cc(Nc2ncc3c(n2)-c2ccc(Cl)cc2C(c2c(F)cccc2OC)=NC3)ccc1C(=O)O
remaining activity (INSRR; kinase activity; 1 µM): 109%

CCCCCCCCCCCCC/C=C/[C@@H](O)[C@H](CO)NC(=O)CCCCCCCCCCCCCCCCCCCCCCCCC
lipid fraction bound (SET; lipid binding, GFP pull-down LC-MS/MS; A549 overexpressing GFP-tagged protein; ER-targeted construct; relative to: eluate plus flow-through): 5%

Cc1cccc2c1ccc1cc(C(C)C)ccc12
fold change (Aryl hydrocarbon receptor; reporter gene, agonist, luciferase reporter; ZF-4; 4.572 µM; relative to: vehicle control): 0.847

Cc1ccc(N2CC(C(N)=O)CC2=O)cc1 (stereo not shown)
fold enrichment (Huntingtin (HTT, Homo sapiens, UniProt P42858); binding, affinity selection mass spectrometry; relative to: other proteins in batch): 0.911

CCCCCCCCCCCCC/C=C/[C@@H](O)[C@H](CO)NC(=O)CCCCCCCCCCCCCCCCC
lipid fraction bound (Protein SET (SET, Homo sapiens, UniProt Q01105, K222D); lipid binding, GFP pull-down LC-MS/MS; A549 overexpressing GFP-tagged protein; relative to: eluate plus flow-through): 33%

C[C@H](CCCOc1ccc(C(=O)O)cc1)[C@H]1CC[C@H]2[C@@H]3CC=C4C[C@@H](O)CC[C@]4(C)[C@H]3CC[C@]12C
efficacy (Oxysterols receptor LXR-alpha (NR1H3, Homo sapiens, UniProt Q13133); reporter gene, GAL4-LBD transactivation; HepG2): 10.6 ± 1.5%

C[C@@H]1CCN(c2nccc(-c3cnn4ncccc34)n2)C1
remaining binding (Tyrosine-protein kinase ABL1 (ABL1, Homo sapiens, UniProt P00519, Q252H); KINOMEscan; 1 µM): 98%

Nc1nc(=O)n([C@H]2C[C@H](O)[C@@H](CO)O2)cc1-c1ccco1
kcat (Cytidine deaminase (CDA, Homo sapiens, UniProt P32320); deamination, substrate, real-time fluorescence; pH 7.4, 37 °C): 2.5 to 3.3 s⁻¹

Nc1nc2c(ncn2[C@@H]2O[C@H](COP(=O)(O)O)[C@@H](O)[C@H]2O)c(=O)[nH]1
reaction rate (GUK1 (Homo sapiens, UniProt Q16774, Y53A); enzyme activity, NADH-coupled; 7.812 µM): -0.849 s⁻¹ and -2.95 s⁻¹ and -0.325 s⁻¹

COC(=O)c1cccc(C(=O)c2c[nH]c3ccc(Cl)cc23)n1
Emax (Aryl hydrocarbon receptor (AHR, Homo sapiens, UniProt P35869); reporter gene, agonist, XRE luciferase; HepG2; relative to: ITE): 70 ± 8%

CCCCNc1c(C(=O)OCC)c(C)nc2c1cnn2CC.Cl
agonist score (GABA-A receptor; alpha-1/beta-2/gamma-2 (Rattus norvegicus, UniProt P18508+P62813+P63138); membrane potential, agonist, QP-DHM fluorescence; HEK293 expressing GABAA; 10 µM; relative to: 10 µM GABA, direction not given): 0.58

CCCCCCCCCCCCC/C=C/[C@@H](O)[C@H](CO)NC(=O)CCCCCCCCCCCCCCCCCCCCC
bound endogenous lipid (SET; lipid binding, GFP pull-down LC-MS/MS; A549 overexpressing GFP-tagged protein; ER-targeted construct, unit not given; relative to: vector-transfected cells): 1

COC(=O)CCc1ccc(C(=O)N/N=C/C(Br)=C/c2ccccc2)cc1
enzyme activity (Protein deacetylase HDAC6 (HDAC6, Homo sapiens, UniProt Q9UBN7); inhibitor, fluorogenic; 5 and 10 µM; relative to: SAHA): no effect

NC(=O)c1ccc[n+]([C@@H]2O[C@H](COP(=O)([O-])OP(=O)(O)OC[C@H]3O[C@@H](n4cnc5c(N)ncnc54)[C@H](O)[C@@H]3O)[C@@H](O)[C@H]2O)c1
dissociation rate constant k6 (Inosine-5'-monophosphate dehydrogenase (Cryptosporidium parvum, UniProt Q8T6T2); dissociation from E-IMP-compound complex, pre-steady-state kinetics; upper limit estimate): ≤ 0.1 s⁻¹

COc1cc(-c2cncc3c2CN(C)Cc2cc(N4CCNCC4)ccc2-3)cc(OC)c1OC
remaining activity (Serine/threonine-protein kinase Nek9 (NEK9, Homo sapiens, UniProt Q8TD19); kinase activity; 1 µM, human enzyme, added: ATP 10 µM; relative to: DMSO control): 103%

O=C(NC1CCC1)c1ccc2nc(-c3cccc(NS(=O)(=O)NCCN4CCCCC4)c3)cn2c1
remaining activity (Serine/threonine-protein kinase 16 (STK16, Homo sapiens, UniProt O75716); enzyme activity; 10 µM): 100%

Cc1cnc(Nc2ccc(C(=O)N3CCC(N4CCCC4)CC3)cc2)nc1-c1cc2ccccc2s1
ligand efficiency (Protein kinase 6 (Plasmodium falciparum, UniProt Q8IDW1); binding, KinaseSeeker split luciferase): 0.29

CC[C@@H]1[C@H](F)C(=O)N[C@@H]1COc1nccc2cc(C(N)=O)c(OC)cc12
inhibition (Serine/threonine-protein kinase tousled-like 1 (TLK1, Homo sapiens, UniProt Q9UKI8); ATP-site probe binding, ActivX profiling; THP-1 cell lysate; 0.04 mM, Lys2 site): -7.3%

COc1cc(-c2cc(C(C)=O)n3ccccc23)cc(OC)c1Cn1ccnc1
ΔTm (Histone acetyltransferase p300 (EP300, Homo sapiens, UniProt Q09472)): 1.4 °C

O=C(O)c1ccc(Nc2ncc3c(n2)-c2ccc(Cl)cc2C(c2c(F)cccc2F)=NC3)cc1
remaining activity (ASK1(h); kinase activity; 1 µM): 120%

C=CC(=O)N1CCC(COCC(=O)N2CCN(c3nc(-c4cnc(N)nc4C(F)F)nc(N4CCOC[C@@H]4C)n3)CC2)CC1
remaining binding (Mitogen-activated protein kinase kinase kinase 5 (MAP3K5, Homo sapiens, UniProt Q99683); KINOMEscan; 1 µM): 97%

Nc1ncnc2c1ncn2[C@@H]1O[C@H](COP(=O)(O)CP(=O)(O)OP(=O)(O)O)[C@@H](O)[C@H]1O
calcium influx (P2X purinoceptor 1 (P2RX1, Homo sapiens, UniProt P51575, F188L); calcium influx; 3.16 µM; relative to: ionomycin response): 86.7% and 95.9% and 87.8%

Cn1c2c(Cl)c(Cl)ccc2c2cc[nH]c(=O)c21
delta Tm (Serine/threonine-protein kinase VRK3 (VRK3, Homo sapiens, UniProt Q8IV63); thermal stability, thermal shift; 10 µM; higher = stronger binding): -0.1 °C

Cc1cc2ccccc2c2ccc3ccccc3c12
fold change (Aryl hydrocarbon receptor; reporter gene, agonist, luciferase reporter; ZF-4; 1.524 µM; relative to: vehicle control): 1.36

Oc1ccccc1-c1n[nH]cc1-c1ccnc2ccccc12
log2 fold change (pH-response regulator protein palF/RIM8 (RIM8, Candida albicans, UniProt Q9UW13); kinase binding, MIB/MS competition; Candida albicans lysate; 1 µM; relative to: DMSO, negative = stronger binding): 0.08

NCC(=O)O
association constant (Lysozyme C (LYZ, Gallus gallus, UniProt P00698); binding, sedimentation equilibrium AUC): 3.2 ± 0.98 M⁻¹

O=C1C[C@@H](c2ccccc2)Oc2cc(O)cc(O)c21
fold change (Aryl hydrocarbon receptor; reporter gene, agonist, luciferase reporter; ZF-4; 1111.11 µM; relative to: vehicle control): 1.29

O=c1nc(SCc2cc(F)cc(C(F)(F)F)c2)nc(SCc2ccc3sccc3c2)[nH]1
mean linear DNA (DNA topoisomerase 2-alpha (TOP2A, Homo sapiens, UniProt P11388); DNA cleavage; 15.6 µM): 2.03%

Repeated from above:
Nc1nc2c(ncn2[C@@H]2O[C@H](COP(=O)(O)O)[C@@H](O)[C@H]2O)c(=O)[nH]1
reaction rate (GUK1 (Homo sapiens, UniProt Q16774, Y53A); enzyme activity, NADH-coupled; 7.812 µM): -0.849 s⁻¹ and -2.95 s⁻¹ and -0.325 s⁻¹

O=C(O)c1ccc(Nc2ncc3c(n2)-c2ccc(Cl)cc2C(c2c(F)cccc2F)=NC3)cc1
remaining activity (ASK1(h); kinase activity; 1 µM): 120%

Cc1cc2nc3c(=O)[nH]c(=O)nc-3n(C[C@H](O)[C@H](O)[C@H](O)CO)c2cc1C
binding (T1, FMN riboswitch RNA, two annealed strands (Fusobacterium nucleatum); competitor, MALDI-TOF-MS; 100 µM, added: riboflavin 150 µM): binds
